Published values collected from several papers.
Numbered parts are unrelated; each lists some results of a single study.

Set 1
Target: Fragile X messenger ribonucleoprotein 1, C-terminal low-complexity region (Fmr1, Mus musculus, UniProt P35922)
Method: RNA Bind-n-Seq
Molecule type: RNA
Matrix: in vitro
Tested at: 200 nM
Notes: whole 134-nt RNA, ends assumed
With: 150 mM LiCl
Relative to: input library
Direction: higher = stronger binding
Quantity: log2 enrichment
All molecules: 7-deaza-guanosine replaces G
Constant ends, left off below: GGGAGUUCUACAGUCCGACGAUC … UGGAAUUCUCGGGUGUCAAGG
Strand = CUGUGCUACACAUCGUAUGUACCGAAUCGGGGAAAAAAGGGGAAAAAAGGGGAAAAAAGGGAAAGUAUUAUGUUACGCCGUUCGGAUCUG; result = 0.761
Strand = AAGUCCUGUGCUACACAUCGUAUGUACCGAAUCGGUUUUGGUUUUGGGUUUUGGGGAAAGUAUUAUGUUACGCCGUUCGGAUCUGCACUU; result = -1.56
Strand = UUUGACGCGGUGUGUUACGUGGGGGAGAGAAUAAAACUCCAGCGAGAUCCGGGCCGUGAACGAAAGCAGUGACGGAGGAGCUUGUACCAC; result = 0.281
Strand = CUGUGCUACACAUCGUAUGUACCGAAUCGGGGAAAAAAAGGGGUUUGGGGAAAAAAAGGGGAAAGUAUUAUGUUACGCCGUUCGGAUCUG; result = -0.429
Strand = CACAGACAACACGCACCCACACAGACACAGAGGGAAGGGGUUGGGAUGGGGACAGGGUGCACAGCAGGGCGGGGUAGGACCCCAGCCCGU; result = -0.403
Strand = CCUCAAGUCCUGUGCUACACAUCGUAUGUACCGAAUCGGCCGGGCCGGCCGGAAAGUAUUAUGUUACGCCGUUCGGAUCUGCACUUCCAG; result = -0.326
Strand = AAGUCCUGUGCUACACAUCGUAUGUACCGAAUCAAAUUUAAACCCAAACCCCCAAAAAAGUAUUAUGUUACGCCGUUCGGAUCUGCACUU; result = 0.92
Strand = CACAGACAACACGCACCCACACAGACACAGAGGGAAGGGGUUGGGAUGGGGACAGGGUGCACAGCAGGGCGGGGUAGGACUCCAGCCCCU; result = -1.11
Strand = GCAGGAAGUAAAAACAAAUGGAAAUGCUUCGGAUAGUGGCAGGGGUGGGGGUUGCUAAGGAAAGAGUGGGAUGGGAGUGGGUAAAGAGUU; result = 1.51
Strand = GCAGGAAGUAAAAACAAAUGGAAAUGCUUCGGAUAGUGGCAGGGGUAGGGGUUGCUAAGGAAAGGGUGGGAUGGGAGUGGGUAAAGAGUU; result = 1.69
Strand = UGGGAGGUGGAUUUUGUUUAUUUUUUUAGCUCAGUUCCAGGGGUGGGAAUUUUUUUUUAAUAUGUGUCAUGAAUAAAGUUGUUUUUGAAA; result = 0.575

Set 2
Target: Histone acetyltransferase KAT6A, winged helix 1, GST fusion (KAT6A, Homo sapiens, UniProt Q92794, residues 1-85)
Method: protein binding microarray
Molecule type: double-stranded DNA, one strand shown
Matrix: in vitro
Tested at: not given
Notes: 8-mer, flanks averaged, mean of 2 arrays, mostly near background
Relative to: not given
Direction: higher = stronger binding
Quantity: E-score
Target sequence (chain): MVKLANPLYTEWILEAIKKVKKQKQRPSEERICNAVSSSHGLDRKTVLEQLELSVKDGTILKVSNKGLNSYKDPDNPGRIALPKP
Strand = GGAGCACA; result = -0.148
Strand = CAGCGAAC; result = -0.0533
Strand = AGGACACT; result = -0.266
Strand = CTTGACGC; result = 0.154
Strand = CGGGACAG; result = 0.219
Strand = CGCCGGCA; result = 0.451
Strand = AAGAACCC; result = -0.0163
Strand = CTCCACGA; result = -0.173
Strand = CATCGTAG; result = 0.0289
Strand = ACTATTTC; result = 0.0259
Strand = AACAGTTA; result = 0.0447
Strand = ACCAGTCG; result = 0.00139
Strand = CGATCACG; result = 0.26
Strand = GCCTAGAC; result = 0.115
Strand = AGTTCTAC; result = -0.175
Strand = CCTACCGC; result = 0.278
Strand = TCATCGCA; result = -0.0166
Strand = GGAAGGCA; result = -0.0954
Strand = ATGCTGCA; result = -0.302
Strand = ACATTTTA; result = -0.012
Strand = AGTGGAAA; result = -0.219
Strand = AGTCGGAC; result = -0.0555

Set 3
Target: RING finger protein unkempt homolog, zinc fingers 1-6, GST-SBP tag (UNK, Homo sapiens, UniProt Q9C0B0, residues 30-357)
Method: RNA Bind-n-Seq
Molecule type: RNA
Matrix: in vitro
Tested at: not given
Notes: RNA with constant flanks, human and mouse sites, ends assumed
Relative to: input RNA pool
Direction: higher = stronger binding
Quantity: bound/input enrichment
Constant ends, left off below: GGGAGUUCUACAGUCCGACGAUC … CAACAGAGGAUUGAGCAUCA
Target sequence (chain): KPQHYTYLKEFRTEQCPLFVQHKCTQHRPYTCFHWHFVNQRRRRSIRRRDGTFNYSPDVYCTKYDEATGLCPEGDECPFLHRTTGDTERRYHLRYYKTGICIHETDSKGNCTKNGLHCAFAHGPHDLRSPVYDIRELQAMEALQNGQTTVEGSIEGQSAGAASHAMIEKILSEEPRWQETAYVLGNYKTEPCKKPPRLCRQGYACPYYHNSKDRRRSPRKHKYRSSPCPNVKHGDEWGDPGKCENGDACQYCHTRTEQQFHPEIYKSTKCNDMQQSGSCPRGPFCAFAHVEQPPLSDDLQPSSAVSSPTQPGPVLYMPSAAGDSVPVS
Strand = AGACGCAAGAUGGCUGUCCUCUCUAAGGAAUAUGGUUUUGUGCUUCUAACUGGUGCUGCCAGCUUUAUAAUGGUGGCCCACCUAGCCAUCAAUGUUUCCAAGGCCCGCAAGAAGUACAAA; result = 0.299 ratio
Strand = GAACAGAUUGUGGAUUUCUUAAAGAAGAAGCAUGAUUUUGUAGACCUUAUUAUAAAGCACAUAGGAACUUCUGCUAUCAUGGAUUUGUUGCUCAGGCUCCUGACGUGUAUCGAACCUCCA; result = 0.379 ratio
Strand = GGUGUCUUCUCAAACGGAGUAAGCGCCUGGAUCCAAAUGGUAGACUACUUGACCCCGUUCUCUAGCGUGAGUUUUCAUAGUGCCAUCUCCUCAUGAUUGUAGAAGCAGCUGAAUGAGUUU; result = 0.221 ratio
Strand = UUUUUAUUCUCAGUACCUCAGGCUCCCCUGUGUACUUGGAGGGGCAGGGAGCCCUUUCCUCGGUUCUGGCCUCCAGACCAGGGUAAGGGCAGGCCCCUCCAACAGGUGCUCACAGCCACC; result = 0.0753 ratio
Strand = UGGGAUAGCCAAGCAAAAUCAGUAAUUAUUUUAAAAUGAACAUAUGUAUUUUUAUUAACUUUUAGUUAAAUACAGAUUUUACAACGAGGUCAGCAUAAGCCUAAAUCUAUAUAGAGGGCU; result = 3.06 ratio
Strand = AUGGCAUACCACCACGACAGCAGGCGGAUAUUUGUGGGCCAGGAUAAUGGGGCUGUGAUGGAAUUUCACGUUUCUGAAGAUUUUAAUAAAAUGAAUUUUAUCAAGACCUAUCCAGCCCAC; result = 0.234 ratio
Strand = UGAAAAUGGCUUCUGCUCCAUUAAAAAGUAAAAAUUGUCCUCCAAAUAUAAAACUCCUUAAUAGAUAUUUUUGAAAUUAAAAUCUUUAAAUUUUAUAAAUCAGCUGUUGCCACUACACAA; result = 92 ratio
Strand = CUGGUUGAUGGUGUUAAGAAAUUGUCAAUCUCUACUCCUGACAGAGGAAAAGAAGAUUCUAGUACUCCAGUUAUGAAAGAUGAGAACACCCCCAUACCACAGGACACAAGAGGCUUAUCA; result = 0.441 ratio
Strand = AAAAAUGGCAAAUAAUAUGAUAUUGGGUGUUUAAAUAGUACAAUAUUGUUCAAAACACACUUUAUAAUUUUUAACAGACUGUUUGGACAUUGAUAAUUCCCCUAUCAAAUCUCAUGACAU; result = 0.148 ratio
Strand = AGUGACAUUGCUCUUUGGUAAAAAUGCCUGCUUUCCAAUACUUUGAUUGCAUAUUAGACAUUCUUAACAGGGCGGCAGUCUAGUGUUGAAAGUUUUAUUUUUCCAUUUUUCUUUUAAGUA; result = 0.59 ratio
Strand = CAUUUAGCAUCAUUUGGGAAAGUCAAGCAGUGUGUGAAUUUUGUGAUUGGACUUUUGAAAUUAGGUGGGCUGAUUAAUUUUUUGAUUUUCCUUCAGAGGGGAAAGUUUGCAACUUUGACA; result = 11.2 ratio

Set 4
Target: Interferon regulatory factor 7, full length, phosphomimetic (IRF7, Homo sapiens, UniProt Q92985, residues 1-503, S101K/S471D/S472D/S475D/S476D/S477D/S483D/S484D/S487D)
Sequence of UniProt Q92985 (whole entry, unmodified, looked up): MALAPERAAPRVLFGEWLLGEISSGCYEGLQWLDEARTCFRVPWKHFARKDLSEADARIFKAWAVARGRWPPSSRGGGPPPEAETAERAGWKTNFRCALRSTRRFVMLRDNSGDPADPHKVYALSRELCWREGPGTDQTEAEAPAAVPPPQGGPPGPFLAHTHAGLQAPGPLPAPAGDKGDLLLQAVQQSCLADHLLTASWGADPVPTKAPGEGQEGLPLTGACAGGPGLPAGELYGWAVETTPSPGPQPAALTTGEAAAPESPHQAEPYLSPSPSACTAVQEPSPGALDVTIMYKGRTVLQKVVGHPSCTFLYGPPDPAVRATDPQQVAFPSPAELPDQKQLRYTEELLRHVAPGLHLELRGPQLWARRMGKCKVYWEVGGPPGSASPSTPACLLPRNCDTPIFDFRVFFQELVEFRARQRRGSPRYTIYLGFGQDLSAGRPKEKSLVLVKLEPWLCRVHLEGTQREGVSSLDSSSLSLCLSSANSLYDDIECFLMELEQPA
Method: protein-binding microarray
Molecule type: double-stranded DNA, one strand shown
Matrix: in vitro
Tested at: 250 nM
Notes: 60-bp whole probe
With: salmon DNA 0.4 mg/ml
Relative to: random background probes
Direction: higher = stronger binding
Quantity: log fluorescence
Constant ends, left off below: GCCTAGCAC … GTCTTGATTCGCTTGACGCTGCTG
Strand = GTGGTTCTGCTTCTTAGCGCGTGCTAG; result = 1.07 z-score
Strand = GACGGTCTCCTTCTCCTGTCGTGCTAG; result = 0.414 z-score
Strand = TTGGTTCTTATCCTTCCCCTCGTGCTA; result = 0.624 z-score
Strand = TCCACTTGTCTTTTCATTTTGTGCTAG; result = 1.06 z-score
Strand = TCAGTTTCCTCTTTCACACTGTGCTAG; result = 4.55 z-score
Strand = GCCGGACTGGACTATCGGGACGTGCTA; result = -0.826 z-score
Strand = TTAGTACTGGGTCTCGGTTAGTGCTAG; result = 1.22 z-score
Strand = TTAGGTATCGACTATCGATTAGTGCTA; result = 0.683 z-score
Strand = GACGGTTTCGGTTGCGGGACGTGCTAG; result = 8.33 z-score
Strand = TTTGGTCTCCTTTTCCTTTAGTGCTAG; result = 2.5 z-score
Strand = TTAGCTTTCGGGTTTCGGTTAGTGCTA; result = 6.7 z-score
Strand = TTAGATTCCAGTTTCGATTAGTGCTAG; result = 10.2 z-score
Strand = TTAGGACTGGGTAGCGGTTAGTGCTAG; result = -0.506 z-score
Strand = GGGCATTTGGAAAATGAAAATGTGCTA; result = -0.0378 z-score
Strand = TCATATATTATATATTTAACTGTGCTA; result = 0.623 z-score
Strand = GACGATTCCAGTTTCGAGATGTGCTAG; result = 5.93 z-score
Strand = TTAGGACTGCTACCGCTTTAGTGCTAG; result = -0.265 z-score

Excerpt of the above (set 1):
Strand = CACAGACAACACGCACCCACACAGACACAGAGGGAAGGGGUUGGGAUGGGGACAGGGUGCACAGCAGGGCGGGGUAGGACUCCAGCCCCU; result = -1.11
Strand = GCAGGAAGUAAAAACAAAUGGAAAUGCUUCGGAUAGUGGCAGGGGUGGGGGUUGCUAAGGAAAGAGUGGGAUGGGAGUGGGUAAAGAGUU; result = 1.51
Strand = GCAGGAAGUAAAAACAAAUGGAAAUGCUUCGGAUAGUGGCAGGGGUAGGGGUUGCUAAGGAAAGGGUGGGAUGGGAGUGGGUAAAGAGUU; result = 1.69
Strand = UGGGAGGUGGAUUUUGUUUAUUUUUUUAGCUCAGUUCCAGGGGUGGGAAUUUUUUUUUAAUAUGUGUCAUGAAUAAAGUUGUUUUUGAAA; result = 0.575
